Measured values collected from several papers.
Each numbered part is a random draw from the data of one study; scales do not carry over between parts.

Study 1
Target: Sal-like protein 4, full length isoform B (SALL4, Homo sapiens, UniProt Q9UJQ4-2, residues 1-616)
Technique: universal PBM
Form: double-stranded DNA, one strand shown
Medium: in vitro
Tested at: not given
Setting: 8-mer, flanks averaged, mean of replicates
Reading: higher = stronger binding
Residues (chain): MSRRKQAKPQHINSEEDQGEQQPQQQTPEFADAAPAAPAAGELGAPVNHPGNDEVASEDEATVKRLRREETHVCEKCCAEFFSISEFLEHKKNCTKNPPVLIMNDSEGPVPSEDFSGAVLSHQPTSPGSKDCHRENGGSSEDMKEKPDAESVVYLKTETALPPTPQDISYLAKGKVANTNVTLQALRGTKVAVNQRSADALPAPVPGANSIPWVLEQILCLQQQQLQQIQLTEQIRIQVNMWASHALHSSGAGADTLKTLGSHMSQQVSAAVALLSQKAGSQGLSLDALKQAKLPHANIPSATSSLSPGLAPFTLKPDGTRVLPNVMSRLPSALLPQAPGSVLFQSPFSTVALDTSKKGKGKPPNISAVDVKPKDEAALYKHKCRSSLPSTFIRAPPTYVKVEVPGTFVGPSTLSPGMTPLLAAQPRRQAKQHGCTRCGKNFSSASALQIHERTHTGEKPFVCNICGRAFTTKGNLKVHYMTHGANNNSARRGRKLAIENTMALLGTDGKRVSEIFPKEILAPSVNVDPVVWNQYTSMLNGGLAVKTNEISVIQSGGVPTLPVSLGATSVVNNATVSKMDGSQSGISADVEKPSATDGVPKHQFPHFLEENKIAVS
Oligonucleotide	E-score
CGTAGTAC	0.061
CTCCCACA	-0.0948
TGCGACAA	0.0606
CGTGATGC	-0.129
CAGAGGAC	-0.144
ACGGCTCG	-0.321
GACTGAGA	-0.0349
AATGTGGC	-0.0527
CCCTCACG	-0.278
CGCTGAAA	-0.178
GACCATAC	-0.0539
ACGGGCGC	-0.218
TCTAGTCA	0.1
AACGAGAC	-0.0895
AGAGTATA	0.203
GAGTAGGA	-0.117
AATGACGT	0.164

Study 2
Target: Prothrombin, mature alpha-thrombin (F2, Homo sapiens, UniProt P00734)
Technique: aptamer microarray, sandwich
Form: DNA with 2'F-ANA
Medium: in vitro
Tested at: 200 nM
Setting: whole 15-mer aptamer, many near background
With: Cy3 exosite-II aptamer, 400 nM
Reading: higher = stronger binding
Oligonucleotide: GGTTGGTGTGGTTGG
Modification	mean fluorescence intensity
2'F-ANA at 2 7 8 9 10 11 13 14 15	77.8 a.u.
2'F-ANA at 2 4 6 7 8 9 10 11 12 13 15	87.7 a.u.
2'F-ANA at 5 10 12 13 15	44.7 a.u.
2'F-ANA at 2 3 5 6 7 11 12 13 14 15	53.7 a.u.
2'F-ANA at 3 4 6 7 8 9 10 12 13 15	230 a.u.
2'F-ANA at 2 3 5 6 12 13 15	148 a.u.
2'F-ANA at 1 3 4 6 7 10 11 12 13 15	104 a.u.
2'F-ANA at 1 3 7 10 11 12 13 15	103 a.u.
2'F-ANA at 1 3 5 6 8 10 11 12 13 14	116 a.u.
2'F-ANA at 4 5 7 8 9 11 15	57.6 a.u.
2'F-ANA at 1 5 6 9 10 11 12 13 14 15	48.4 a.u.
2'F-ANA at 1 3 5 6 7 8 9 13 14 15	46.2 a.u.
2'F-ANA at 3 7 9 10 11 12 13 14 15	428 a.u.

Study 3
Target: RNA binding protein fox-1 homolog 2, RRM domain, GST-SBP tag (RBFOX2, Homo sapiens, UniProt O43251-10, residues 100-194)
Technique: RNA Bind-n-Seq
Form: RNA
Medium: in vitro
Tested at: 365 nM
Setting: natural RNA segment, single round, ends assumed
Relative to: no-protein control
Reading: higher = stronger binding
Construct (chain): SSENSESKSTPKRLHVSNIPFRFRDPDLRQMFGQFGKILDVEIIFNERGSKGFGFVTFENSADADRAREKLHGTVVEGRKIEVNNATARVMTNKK
Oligonucleotide	RBNS enrichment (R)
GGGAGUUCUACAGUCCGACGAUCGAGUGUGACCAAAAGUUACAUGUUUGCACCUUUCUAGUUGAAAAUAAAGUGUAUAUUUUUUCUAUAAGGGCUUGGUUAUUCAUUUAUCCUUCUAAACAUUUCUGAGUUUUUGGAAUUCUCGGGUGCCAA	1.06
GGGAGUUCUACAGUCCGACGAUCCUAUUUAAAAAAUAGGAAGCUGCUUUUAUAUUUAAUAAUAAAAGAAGUGCACAAGCUGCCACGUGUGGUCAUGGGAAAACUUGUUUUUGGGGCGUGGGCAACAACAGUAGUGGAAUUCUCGGGUGCCAA	0.418
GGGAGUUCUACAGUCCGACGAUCAAUACCUUAAAAAUAAUAGAUUGAUGAUUUUCUUUAUUUCCUAGAGAAUUUAUUUUAUAAAUACUUUGUUUACAUUUUAGAUUGUACUUGUCUUUAUUUAAAAUGAUGAAUGGAAUUCUCGGGUGCCAA	0.993
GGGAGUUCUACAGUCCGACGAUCUGCUCCUCCACAUCCUGGAGCGUCCCAGCACCUCCCCACCUACUUUUGUUCCCAAUGUCAGCCACCAUGCCUUAGCAGCUGAACAAUCGAGCCUCAUGCUCAUGAAAUCAUGGAAUUCUCGGGUGCCAA	0.772
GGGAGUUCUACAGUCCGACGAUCCUUUACAGUUUUUUUCUUUGUGUAGUAUCUUGAAAUCCUGGAAAAUUCUAUGGAAUAGUUCUGUAUAUAGGGCACAAGUAAAGGCAUUGUCCAAAGUUUAUUUAUUUAUUUGGAAUUCUCGGGUGCCAA	0.462
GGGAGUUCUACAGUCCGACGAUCCUACUGCAGAAGUGCAGGGCACCAGUAAACACCAUGUAUUAUUGAAGAUGAAUCUGUUUGUAUGUAUCCUUGUCAAAUAUAUUCUAUAAUGAAAUAAAAUCUGAAAAGUGUGGAAUUCUCGGGUGCCAA	0.443
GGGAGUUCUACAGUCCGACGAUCAAGAGAUAUGUACUGCUGGGUACAUGGACAGUAAGUGUGUUUUCAGAUGGAGUACCAGCACCGAAAAUGGGUUGAGGGAGGAUGGGUUGUAUGUAUGUUUCUGCCCACUAUGGAAUUCUCGGGUGCCAA	6.18
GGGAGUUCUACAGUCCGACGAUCAAGGGAGGGGUGGAGAUGGGUGUGGCAGUGUAUGGUGUGUGAUUUUUAUUUUCUUCUUUGGUCAUGGGGGCCAAGGAGAAAGGCAUGAAUCUUCCCUGUCAGGCUCUUACUGGAAUUCUCGGGUGCCAA	1.86
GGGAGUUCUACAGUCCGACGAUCGUGGGCUGCUAACAGCAAGAGGGAGCACUUGUCUUCAUCACAAGCAAGAUGAUGAGCACAGAGUGAGACCUUUAACAGGAUGGCGGAGGGAAAGGUGUUUGCUGGAGUGAUGGAAUUCUCGGGUGCCAA	2.59
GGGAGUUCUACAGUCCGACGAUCGGGCGAGCAGGUGUGACAUUGGCUAAGGAAGUGUUUCCAGAGUGUGCGUCUCGGGUGACCCUUGCUGUCUUUUCUCUACACCCAUGGAUUCUCUGAAAAUACUUUGCAGUUGGAAUUCUCGGGUGCCAA	0.478
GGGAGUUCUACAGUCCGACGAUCCUCACCAGGACCCCUUAUGUAGUGUGCUAUCCUCUAAACUCCUAAGCUAAGUCACCCUGGUGUCAUUCUGUCAUCUGUGCAACUAUUAUUUCCUUUGGGAGUUUCCUCUUUGGAAUUCUCGGGUGCCAA	0.324
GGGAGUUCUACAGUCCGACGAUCCGAGGGGAUGGGGAUGCUUCCGCCUUUCCGGGGCUGCUGGCCUGGCCCUUGAGUGGGGCAGCCUCCUUGCCUGGAACUCACUCACUCUGGGUGCCUCCUCCCCAGGUGGAUGGAAUUCUCGGGUGCCAA	0.4

Study 4
Target: Histone acetyltransferase KAT6A, winged helix 2, GST fusion (KAT6A, Homo sapiens, UniProt Q92794, residues 85-181)
Technique: protein binding microarray
Form: double-stranded DNA, one strand shown
Medium: in vitro
Tested at: not given
Setting: 8-mer, flanks averaged, mean of 2 arrays, mostly near background
Relative to: not given
Reading: higher = stronger binding
Construct (chain): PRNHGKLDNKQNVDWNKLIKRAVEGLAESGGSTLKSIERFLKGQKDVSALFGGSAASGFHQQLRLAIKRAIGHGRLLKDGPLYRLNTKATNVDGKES
Oligonucleotide	E-score
ATCTACGG	-0.172
CCCCTAAG	-0.147
AAGTTTAA	-0.0641
CGGCGATA	0.1
CTTTCGTC	0.0384
AACATATA	-0.0469
GACTCCGC	-0.0163
AGTCCTCA	-0.116
GGAATACC	-0.0288
ATGGAACA	-0.0276
GGTAGGCA	-0.00166
CACAGTCG	-0.0772
GCCACCAC	-0.0174
TATGGTGA	-0.16
GGGTCATA	-0.0242
CGTGGCAC	0.102
TAGAGCAA	0.0892
AGCCCTTG	-0.0863
CATGAAAC	0.0535
GTAACTTA	0.0788
AGACCGAG	0.0278
CCATAGAC	-0.266
CAGATTGC	0.1
ATCGCCCG	-0.0103
TCGGTGAA	-0.105

For quick reference, copied from above (study 4):
Oligonucleotide	E-score
AGCCCTTG	-0.0863
CATGAAAC	0.0535
GTAACTTA	0.0788
AGACCGAG	0.0278
CCATAGAC	-0.266
CAGATTGC	0.1
ATCGCCCG	-0.0103
TCGGTGAA	-0.105
